# Published values collected from several papers.
# A part holds a random share of what one study measured.
# UniProt Q13557, sequence (whole entry, looked up): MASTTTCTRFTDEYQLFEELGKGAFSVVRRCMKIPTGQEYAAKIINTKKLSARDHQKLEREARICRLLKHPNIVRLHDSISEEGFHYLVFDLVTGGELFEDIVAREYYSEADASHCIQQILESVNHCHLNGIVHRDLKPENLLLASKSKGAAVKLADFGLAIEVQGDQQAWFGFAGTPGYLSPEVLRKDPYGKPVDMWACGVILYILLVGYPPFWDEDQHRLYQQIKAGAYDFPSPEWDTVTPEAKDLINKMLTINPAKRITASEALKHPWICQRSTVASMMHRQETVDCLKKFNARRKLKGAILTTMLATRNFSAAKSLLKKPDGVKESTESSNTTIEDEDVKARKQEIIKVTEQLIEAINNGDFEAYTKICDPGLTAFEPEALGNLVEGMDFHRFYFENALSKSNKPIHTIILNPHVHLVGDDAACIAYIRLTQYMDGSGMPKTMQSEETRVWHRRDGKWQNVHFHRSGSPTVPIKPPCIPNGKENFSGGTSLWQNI
# UniProt Q9Y6R4, sequence (whole entry, looked up): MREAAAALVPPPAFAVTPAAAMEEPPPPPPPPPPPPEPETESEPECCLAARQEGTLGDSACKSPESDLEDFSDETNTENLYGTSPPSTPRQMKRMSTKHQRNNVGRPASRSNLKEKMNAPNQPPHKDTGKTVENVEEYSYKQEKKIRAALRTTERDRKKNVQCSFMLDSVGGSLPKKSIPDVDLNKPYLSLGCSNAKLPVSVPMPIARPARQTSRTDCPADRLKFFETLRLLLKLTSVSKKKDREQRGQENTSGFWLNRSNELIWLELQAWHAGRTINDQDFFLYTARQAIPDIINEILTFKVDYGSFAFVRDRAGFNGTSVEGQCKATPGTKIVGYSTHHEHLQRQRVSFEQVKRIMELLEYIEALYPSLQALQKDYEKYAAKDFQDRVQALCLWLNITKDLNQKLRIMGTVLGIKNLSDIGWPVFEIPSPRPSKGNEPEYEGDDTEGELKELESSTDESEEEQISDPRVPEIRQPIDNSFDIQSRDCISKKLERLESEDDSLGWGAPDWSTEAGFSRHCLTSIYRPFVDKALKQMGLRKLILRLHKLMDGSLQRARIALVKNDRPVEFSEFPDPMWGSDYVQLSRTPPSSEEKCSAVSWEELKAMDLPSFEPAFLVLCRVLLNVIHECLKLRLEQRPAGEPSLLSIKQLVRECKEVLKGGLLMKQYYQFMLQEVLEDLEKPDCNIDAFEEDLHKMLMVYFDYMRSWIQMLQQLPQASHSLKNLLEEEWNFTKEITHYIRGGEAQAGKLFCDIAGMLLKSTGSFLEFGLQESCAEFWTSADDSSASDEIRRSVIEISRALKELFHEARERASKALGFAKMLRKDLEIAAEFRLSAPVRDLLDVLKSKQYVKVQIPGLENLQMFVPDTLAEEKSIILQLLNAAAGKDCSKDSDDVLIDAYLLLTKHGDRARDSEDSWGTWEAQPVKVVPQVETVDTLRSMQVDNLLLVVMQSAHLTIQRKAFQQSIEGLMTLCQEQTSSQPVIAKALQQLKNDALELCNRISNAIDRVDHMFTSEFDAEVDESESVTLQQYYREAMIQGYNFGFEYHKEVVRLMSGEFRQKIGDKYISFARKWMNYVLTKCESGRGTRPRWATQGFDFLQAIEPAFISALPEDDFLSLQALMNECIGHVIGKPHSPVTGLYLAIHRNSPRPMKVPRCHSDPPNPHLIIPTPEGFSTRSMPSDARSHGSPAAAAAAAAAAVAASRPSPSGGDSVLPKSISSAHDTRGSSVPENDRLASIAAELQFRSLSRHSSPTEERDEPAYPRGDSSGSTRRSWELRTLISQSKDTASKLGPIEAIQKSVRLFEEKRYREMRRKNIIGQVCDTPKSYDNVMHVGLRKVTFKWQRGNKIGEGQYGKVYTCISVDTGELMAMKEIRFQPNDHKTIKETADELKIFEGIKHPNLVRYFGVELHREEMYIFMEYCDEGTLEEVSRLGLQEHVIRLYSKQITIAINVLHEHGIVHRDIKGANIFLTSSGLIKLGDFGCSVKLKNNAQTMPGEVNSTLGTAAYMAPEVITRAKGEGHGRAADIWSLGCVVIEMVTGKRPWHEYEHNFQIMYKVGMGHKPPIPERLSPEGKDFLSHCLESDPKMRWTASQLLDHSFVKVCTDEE
# UniProt Q56UN5, sequence (whole entry, looked up): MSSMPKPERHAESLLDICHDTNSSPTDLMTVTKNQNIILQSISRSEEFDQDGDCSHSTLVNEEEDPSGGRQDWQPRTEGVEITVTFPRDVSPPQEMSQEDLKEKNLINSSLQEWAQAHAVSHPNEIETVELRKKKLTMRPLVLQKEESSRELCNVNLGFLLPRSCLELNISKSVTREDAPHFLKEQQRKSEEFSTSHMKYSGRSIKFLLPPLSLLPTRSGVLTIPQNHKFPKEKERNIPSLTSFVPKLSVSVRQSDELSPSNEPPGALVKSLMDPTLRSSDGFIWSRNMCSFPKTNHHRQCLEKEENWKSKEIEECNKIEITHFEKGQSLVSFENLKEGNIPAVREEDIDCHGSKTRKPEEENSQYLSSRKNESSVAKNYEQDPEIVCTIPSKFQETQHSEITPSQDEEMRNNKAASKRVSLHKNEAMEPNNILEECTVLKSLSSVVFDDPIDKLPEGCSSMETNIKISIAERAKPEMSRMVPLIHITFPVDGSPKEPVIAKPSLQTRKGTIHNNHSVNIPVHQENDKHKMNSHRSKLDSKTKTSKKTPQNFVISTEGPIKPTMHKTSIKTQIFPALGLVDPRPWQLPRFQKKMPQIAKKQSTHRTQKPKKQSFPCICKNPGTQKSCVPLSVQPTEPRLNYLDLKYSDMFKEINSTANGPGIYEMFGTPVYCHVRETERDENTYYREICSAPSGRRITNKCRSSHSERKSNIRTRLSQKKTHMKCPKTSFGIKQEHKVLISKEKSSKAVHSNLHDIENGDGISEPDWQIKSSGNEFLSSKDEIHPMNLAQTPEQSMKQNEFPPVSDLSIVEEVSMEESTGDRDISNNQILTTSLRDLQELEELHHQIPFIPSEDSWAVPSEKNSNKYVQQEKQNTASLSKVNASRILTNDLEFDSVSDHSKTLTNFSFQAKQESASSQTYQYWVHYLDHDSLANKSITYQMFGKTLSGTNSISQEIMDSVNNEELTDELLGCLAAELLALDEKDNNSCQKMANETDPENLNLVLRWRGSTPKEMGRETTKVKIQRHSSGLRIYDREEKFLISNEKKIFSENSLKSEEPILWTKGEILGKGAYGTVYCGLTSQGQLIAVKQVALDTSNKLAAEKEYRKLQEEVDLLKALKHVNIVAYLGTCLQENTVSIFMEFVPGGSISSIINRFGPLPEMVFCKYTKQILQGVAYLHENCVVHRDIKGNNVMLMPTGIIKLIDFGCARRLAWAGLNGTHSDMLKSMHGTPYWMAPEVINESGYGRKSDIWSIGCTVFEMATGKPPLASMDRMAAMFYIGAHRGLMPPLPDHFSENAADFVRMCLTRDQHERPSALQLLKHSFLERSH
# UniProt P45985, sequence (whole entry, looked up): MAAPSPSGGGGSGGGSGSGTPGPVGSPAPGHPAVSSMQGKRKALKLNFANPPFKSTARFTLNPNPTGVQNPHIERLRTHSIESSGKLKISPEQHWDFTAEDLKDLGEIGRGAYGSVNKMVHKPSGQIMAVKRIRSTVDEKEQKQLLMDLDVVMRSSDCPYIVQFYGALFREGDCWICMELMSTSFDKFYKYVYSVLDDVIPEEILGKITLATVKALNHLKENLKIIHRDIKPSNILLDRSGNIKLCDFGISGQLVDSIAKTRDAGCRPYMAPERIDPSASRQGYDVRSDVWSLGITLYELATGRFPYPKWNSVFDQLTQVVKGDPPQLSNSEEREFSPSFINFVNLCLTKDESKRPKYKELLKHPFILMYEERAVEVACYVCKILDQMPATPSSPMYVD
# UniProt O96017, sequence (whole entry, looked up): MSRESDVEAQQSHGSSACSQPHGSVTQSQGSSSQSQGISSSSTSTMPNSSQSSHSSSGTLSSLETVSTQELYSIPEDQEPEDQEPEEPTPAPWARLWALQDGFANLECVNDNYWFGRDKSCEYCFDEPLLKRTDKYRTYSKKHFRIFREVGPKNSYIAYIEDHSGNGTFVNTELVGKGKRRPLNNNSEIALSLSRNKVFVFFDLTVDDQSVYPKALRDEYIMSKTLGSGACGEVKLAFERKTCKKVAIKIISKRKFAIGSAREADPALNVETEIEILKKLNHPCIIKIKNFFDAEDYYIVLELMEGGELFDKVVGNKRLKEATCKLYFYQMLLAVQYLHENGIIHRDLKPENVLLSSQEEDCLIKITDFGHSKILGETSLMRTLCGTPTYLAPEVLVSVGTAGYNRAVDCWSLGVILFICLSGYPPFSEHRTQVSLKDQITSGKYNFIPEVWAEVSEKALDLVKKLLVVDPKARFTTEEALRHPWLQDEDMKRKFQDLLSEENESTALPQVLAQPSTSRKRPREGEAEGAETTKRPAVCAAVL
# UniProt Q96SB4, sequence (whole entry, looked up): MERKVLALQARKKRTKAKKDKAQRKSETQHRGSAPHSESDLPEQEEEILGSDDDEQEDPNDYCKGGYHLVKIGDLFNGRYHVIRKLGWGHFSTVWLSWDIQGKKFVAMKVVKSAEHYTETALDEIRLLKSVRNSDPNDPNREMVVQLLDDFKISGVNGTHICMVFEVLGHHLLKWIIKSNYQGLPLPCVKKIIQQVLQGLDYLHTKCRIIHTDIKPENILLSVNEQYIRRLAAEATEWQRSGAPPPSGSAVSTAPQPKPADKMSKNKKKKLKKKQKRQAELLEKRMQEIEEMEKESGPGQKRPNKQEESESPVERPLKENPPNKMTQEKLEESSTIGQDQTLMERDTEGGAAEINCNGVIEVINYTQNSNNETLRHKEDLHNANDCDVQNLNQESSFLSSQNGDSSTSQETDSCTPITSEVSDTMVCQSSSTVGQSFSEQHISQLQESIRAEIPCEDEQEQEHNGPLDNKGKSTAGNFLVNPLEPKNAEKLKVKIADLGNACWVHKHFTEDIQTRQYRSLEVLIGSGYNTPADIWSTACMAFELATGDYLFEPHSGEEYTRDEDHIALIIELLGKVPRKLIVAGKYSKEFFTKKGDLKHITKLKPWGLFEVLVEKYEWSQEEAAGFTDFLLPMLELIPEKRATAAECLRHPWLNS

# Sample 1
# Structure (SMILES): Cc1nc(Nc2ncc(C(=O)Nc3c(C)cccc3Cl)s2)cc(N2CCN(CCO)CC2)n1
# Read-out: enzyme activity
# Mode: inhibitor
# Concentration: 0.5 µM
# Relative to: control
target,remaining activity [%]
"Mitogen-activated protein kinase kinase kinase 3 (MAP3K3, Homo sapiens, UniProt Q99759)",87.8
"Calcium/calmodulin-dependent protein kinase kinase 2 (CAMKK2, Homo sapiens, UniProt Q96RR4)",101
"TGF-beta receptor type-2 (TGFBR2, Homo sapiens, UniProt P37173)",98.3
"Serine/threonine-protein kinase Chk2 (CHEK2, Homo sapiens, UniProt O96017)",103
"Protein kinase C beta type, isoform beta-I (PRKCB, Homo sapiens, UniProt P05771)",98.8
"Protein kinase C alpha type (PRKCA, Homo sapiens, UniProt P17252)",103
"Calcium/calmodulin-dependent protein kinase type II subunit delta (CAMK2D, Homo sapiens, UniProt Q13557)",109
"Death-associated protein kinase 1 (DAPK1, Homo sapiens, UniProt P53355)",122
"Inhibitor of nuclear factor kappa-B kinase subunit epsilon (IKBKE, Homo sapiens, UniProt Q14164)",90
"cAMP-dependent protein kinase catalytic subunit alpha (PRKACA, Homo sapiens, UniProt P17612)",102

# Sample 2
# SMILES: COc1ccc2cc(OCC3(C(=O)O)CN(C(=O)c4ccc(F)cc4)C3)ccc2c1
# Method: competition with immobilised ligand
# Concentration: 1 µM
target,read-out,remaining binding
"Serine/threonine-protein kinase 32C (STK32C, Homo sapiens, UniProt Q86UX6)",cell-free assay,100%
"Mitogen-activated protein kinase kinase kinase 4 (MAP3K4, Homo sapiens, UniProt Q9Y6R4)",cell-free assay,65%
"Phosphatidylinositol 4,5-bisphosphate 3-kinase catalytic subunit alpha isoform (PIK3CA, Homo sapiens, UniProt P42336)",binding,42%
"Serine/threonine-protein kinase Nek5 (NEK5, Homo sapiens, UniProt Q6P3R8)",cell-free assay,100%
"Dual specificity mitogen-activated protein kinase kinase 4 (MAP2K4, Homo sapiens, UniProt P45985)",cell-free assay,90%
"SRSF protein kinase 1 (SRPK1, Homo sapiens, UniProt Q96SB4)",cell-free assay,72%
"Dual specificity tyrosine-phosphorylation-regulated kinase 1B (DYRK1B, Homo sapiens, UniProt Q9Y463)",cell-free assay,100%
"Hepatocyte growth factor receptor (MET, Homo sapiens, UniProt P08581, Y1235D)",cell-free assay,91%
"Serine/threonine-protein kinase SBK1 (SBK1, Homo sapiens, UniProt Q52WX2)",cell-free assay,100%
"Epidermal growth factor receptor (EGFR, Homo sapiens, UniProt P00533, del747-750/T751S)",cell-free assay,100%
"Mitogen-activated protein kinase kinase kinase 19 (MAP3K19, Homo sapiens, UniProt Q56UN5)",cell-free assay,82%

# Sample 3
# Target: RNA binding protein fox-1 homolog 2, RRM domain, GST-SBP tag (RBFOX2, Homo sapiens, UniProt O43251-10, residues 100-194)
# Method: RNA Bind-n-Seq
# Form: RNA
# Sample: in vitro
# Concentration: 365 nM
# Notes: natural RNA segment, single round, ends assumed
# Relative to: no-protein control
# Direction: higher = stronger binding
Strand,RBNS enrichment (R)
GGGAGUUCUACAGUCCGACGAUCCCUGUCUCUGGAAAAAAAAAAAAAAAAAAAAGGAAUAGGUAAAAGGGACAGAGGUGAAAUUUUGAGUGACUUGAGUCUCUUGCAGUCCCUGAUUACACAGAACCUUUCUGUGGAAUUCUCGGGUGCCAA,0.474
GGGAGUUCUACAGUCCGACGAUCGGGGCUAGUAGCUGACCUGCUGCCUCCUGCCCUACUUGUGUGGACAGGAGGCCCACGGGCACUGGGGAAGCUGAGUUCUACAAUCCCGCUGGGGCGCAUGGGCAGGAGAGUGGAAUUCUCGGGUGCCAA,4.81
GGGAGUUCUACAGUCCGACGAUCCAUCCCUCCCAGCAGCUCCCCUUCCACCCCCCGGGGAACUGAAGAUUGUCCUGGCCGCGACCUGAGACCUCCAUGAGUGGAGGGAAGAGUGAUCUAUGUCUCUUCCCCCCUGGAAUUCUCGGGUGCCAA,0.453
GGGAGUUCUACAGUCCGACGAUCCUACCCUUCCAUGCCCCAGACCUCUGUCUUGCAUGUGACAAUUGACAAUCUGGACUACCCCAAGAUGGCACCCAAGUGUUUGGCUUCUGGCUACCUAAGGUUAACAUGUCUGGAAUUCUCGGGUGCCAA,2.03
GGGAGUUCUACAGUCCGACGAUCUCUUUUUUUGCUGCCUUGCUUGAGUUGCUUGUGACUGAUCUUUUGAGGCUGUCAUCAUGGCUAGGGUUCUUUUAUGUAUGUUAAAUUAAAACCUGAAUUCAGAGGUAACGUGGAAUUCUCGGGUGCCAA,7.38
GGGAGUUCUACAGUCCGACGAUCUUUGCACUAAAUUAGUGACUUGGACUUUUGCCCAGUGAAGACAGGCUGUGACACUCUGGAUGUCUUGGUGUGUGUAGACACACAUUGCAGACUCUUAACGCAGGAAGGACUGGAAUUCUCGGGUGCCAA,0.756
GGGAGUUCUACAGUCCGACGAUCGCACUUUGAGUAUCUGAAGAGUGAGAGCAUUCAUGUUUGACAGGUCCUGCUUCCCACUAUCCUUUUCCUGUUAUUAUUCAAAUUUUACACAAGGACUAAUCCUGGGUGUCUGGAAUUCUCGGGUGCCAA,0.782
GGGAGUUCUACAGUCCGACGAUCGAGCAUCUGUGUGUCCUGCAGCCUCCUCUGAACUUGUGGUUCAUUCUCAGGCUGGGGUGGACUCAGAUGCCAGGAAAGGGACAGCCUCCCAUUGUCAGGCAGAAGCUGCCUGGAAUUCUCGGGUGCCAA,0.394

# Sample 4
# Target: Phosphate system positive regulatory protein PHO4, full length, GST-tagged (PHO4, Saccharomyces cerevisiae, UniProt P07270, residues 1-312)
# Method: competition protein-binding microarray
# Form: double-stranded DNA, one strand shown
# Sample: in vitro
# Concentration: 2 µM
# Notes: whole 60-bp probe, lowest competitor level
# With: Cbf1 competitor, 0.05 µM
# Direction: higher = stronger binding
# Construct (chain): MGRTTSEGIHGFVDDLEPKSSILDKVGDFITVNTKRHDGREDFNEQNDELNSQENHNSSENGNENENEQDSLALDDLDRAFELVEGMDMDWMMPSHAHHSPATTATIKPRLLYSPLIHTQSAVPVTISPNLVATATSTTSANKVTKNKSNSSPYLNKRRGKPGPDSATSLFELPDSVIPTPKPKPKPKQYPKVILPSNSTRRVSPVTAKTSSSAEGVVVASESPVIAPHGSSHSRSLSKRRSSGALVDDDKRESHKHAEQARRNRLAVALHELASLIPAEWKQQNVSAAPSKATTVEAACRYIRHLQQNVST
Strand,fluorescence intensity [a.u.]
CGTCCTAGTGATTGGGCGGTGGGTGCCATGAGGAAGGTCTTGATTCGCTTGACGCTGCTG,6470
CGGGGTTAAGTTTGTAGCGTGGGTGGCTTGCAGCAGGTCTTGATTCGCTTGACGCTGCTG,6800
CGGGGTTAAGTTTGACTCGTGGGTGGCTTGCAGCAGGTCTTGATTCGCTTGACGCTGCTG,10300
TTTGTGGCTTAGCATCTCGTGAGGATATGGAAGACTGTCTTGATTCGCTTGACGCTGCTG,5430
CCCCTATACATGGGGTACGTGCCAGTATTTTGAGGGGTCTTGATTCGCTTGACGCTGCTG,9610
TGCGCAACAACTTGGGTCGTGGGTGTATGTCTAGAAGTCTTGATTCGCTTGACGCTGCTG,8350
TGCGCAACAACTTGGGCGGTGGGTGTATGTCTAGAAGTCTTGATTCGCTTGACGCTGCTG,4220
CTACGGATCGCATCGCACGTTTGTTTACAATTGATGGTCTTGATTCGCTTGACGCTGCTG,11600
